Published values pooled from the literature.
Protocols differ between the studies behind these lines. ± marks the error that the study gave.
rep main protease: Replicase polyprotein 1ab, main protease (rep, Severe acute respiratory syndrome coronavirus 2, UniProt P0DTD1)

Molecule	tested on	assay	test system	setting	measurement	value
Nc1ccn([C@H]2CC[C@@H](CO)O2)c(=O)n1	HIV-1	viral replication, MAGI	NL4-3 D36G Env-resistant mutant	–	EC50	771 ± 272 nM
Cc1cc(/C=C/C#N)cc(C)c1Nc1nc(Nc2ccc(/C=C/C#N)cc2)ncc1N	HIV-1	viral replication, single-round infection	RT mutant K101P	–	EC50	> 100 nM
Nc1c(C(=O)NCc2ccc(F)cc2F)c(=O)n(O)c2ncc(CCCCCCO)cc12	HIV-1	viral replication, single-round infectivity	integrase G140S/Q148H	–	EC50	9.4 ± 3.6 nM
O=C(NCCCCN1CCOCC1)c1cc2ccccc2o1	rep main protease	viral replication, Gluc reporter	SARS-CoV-2	20 µM	inhibition	-0.0737%
O=C1Nc2ccc(Cl)cc2[C@@](C#CC2CC2)(C(F)(F)F)O1	HIV-1	viral replication	MT4, RES056 K103N+Y181C	–	EC50	186 ± 22.4 nM
COc1cc2c(cc1Cc1cccc(Cl)c1F)c(=O)c(C(=O)O)cn2[C@H](CO)C(C)C	HIV-1	viral replication, single-round infectivity	integrase G140S/Q148H	–	EC50	5700 ± 1100 nM
Cc1cc(/C=C/C#N)cc(C)c1-n1cnc2cnc(Nc3ccc4cc(C#N)ccc4c3)nc21	HIV-1	viral replication, single-round infection	RT mutant V106A/F227L/L234I	–	EC50	13.1 ± 0.7 nM
CC(C)(C#Cc1ccc(-c2ccc(Cl)c3c(NS(C)(=O)=O)nn(CC(F)(F)F)c23)c([C@H](Cc2cc(F)cc(F)c2)NC(=O)Cn2nc(C(F)(F)F)c3c2C(F)(F)[C@@H]2C[C@H]32)n1)S(C)(=O)=O	HIV-1	viral replication	–	–	EC50	> 15000 nM
Cn1cnc(Cn2c(=O)[nH]/c(=N\c3cc4cn(C)nc4cc3Cl)n(Cc3cc(F)c(F)cc3F)c2=O)n1	–	–	human, normal renal function	oral, 375 mg, single dose, geometric mean	AUC(0-last)	977 µg·h/mL
C[C@@H]1O[C@@H](O[C@H]2[C@H](O[C@H]3[C@H](O[C@H]4CC[C@@]5(C)[C@@H](CC[C@]6(C)[C@@H]5CC=C5[C@@H]7CC(C)(C)C[C@@H](O)[C@]7(C)CC[C@]56C)[C@@]4(C)CO)O[C@H](C(=O)O)[C@@H](O)[C@@H]3O)O[C@H](CO)[C@H](O)[C@@H]2O)[C@H](O)[C@H](O)[C@H]1O	rep main protease	reporter gene (Gaussia luciferase), inhibitor	–	20 µM	inhibition	-0.767%
Cn1c(Cn2ccc(C(F)(F)F)c(Oc3cc(Cl)cc(C#N)c3)c2=O)n[nH]c1=O	HIV-1	viral replication, single-round infection	RT mutant Y181I	–	EC50	0.6 ± 0.3 nM
Nc1ncnc2c([C@@H]3N[C@H](CO)[C@@H](O)[C@H]3O)c[nH]c12	Marburg virus	viral replication, antibody staining	HeLa, Musoke	0.4 µM, 1 h	infected cells	9.4%
CC(C)(C#Cc1ccc(-c2ccc(Cl)c3c(NS(C)(=O)=O)nn(CC(F)(F)F)c23)c([C@H](CC2CCCC2)NC(=O)Cn2nc(C(F)(F)F)c3c2C(F)(F)[C@@H]2C[C@H]32)n1)S(C)(=O)=O	HIV-1	viral replication	–	–	EC50	5.8 ± 4.2 nM
O=C1Nc2ccc(Cl)cc2[C@@](C#CC2CC2)(C(F)(F)F)O1	HIV-1	viral replication, single-round infection	RT mutant V106A	–	EC50	1.2 ± 0.2 nM
delavirdine	HIV-1	viral replication	MT-2, Y181C, NNRTI-resistant	–	EC50	> 3700 nM
CC[C@H](C)[C@H](NC(=O)[C@H](CC(C)C)NC(=O)[C@H](Cc1c[nH]c2ccccc12)NC(=O)[C@H](CCC(N)=O)NC(=O)[C@@H](NC(=O)[C@H](Cc1ccccc1)NC(=O)[C@H](C)NC(=O)[C@H](CCCCNC(=O)COCCOCCNC(=O)COCCOCCNC(=O)CC[C@H](NC(=O)CCCCCCCCCCCCCCCCCCC(=O)O)C(=O)O)NC(=O)[C@H](CCC(N)=O)NC(=O)[C@H](C)NC(=O)[C@@H](NC(=O)[C@H](CCCCN)NC(=O)[C@H](CC(=O)O)NC(=O)[C@H](CC(C)C)NC(=O)C(C)(C)NC(=O)[C@@H](NC(=O)[C@H](CO)NC(=O)[C@H](Cc1ccc(O)cc1)NC(=O)[C@H](CC(=O)O)NC(=O)[C@H](CO)NC(=O)[C@@H](NC(=O)[C@H](Cc1ccccc1)NC(=O)[C@@H](NC(=O)CNC(=O)[C@H](CCC(=O)O)NC(=O)C(C)(C)NC(=O)[C@@H](N)Cc1ccc(O)cc1)[C@@H](C)O)[C@@H](C)O)[C@@H](C)CC)[C@@H](C)CC)C(C)C)C(=O)N[C@@H](C)C(=O)NCC(=O)NCC(=O)N1CCC[C@H]1C(=O)N[C@@H](CO)C(=O)N[C@@H](CO)C(=O)NCC(=O)N[C@@H](C)C(=O)N1CCC[C@H]1C(=O)N1CCC[C@H]1C(=O)N1CCC[C@H]1C(=O)N[C@@H](CO)C(N)=O	–	–	healthy subjects, single ascending dose	8.0 mg, day 29	serum ALT	38.1 ± 26 U/L
Cc1cn([C@H]2C[C@H](N=[N+]=[N-])[C@@H](CO)O2)c(=O)[nH]c1=O	HIV-1	viral replication	human PBMC, subtype B 92BR014, dual-tropic clinical isolate	–	EC50	2.49 ± 0.22 nM
CC(C)(C#Cc1ccc(-c2ccc(Cl)c3c(NS(C)(=O)=O)nn(CC(F)(F)F)c23)c([C@@H](CC2CCCCC2)NC(=O)Cn2nc(C(F)(F)F)c3c2C(F)(F)[C@H]2C[C@@H]32)n1)S(C)(=O)=O	HIV-1	viral replication	–	–	EC50	> 40000 nM
CCCC(=O)OCSc1ccccc1C(=O)NCCC(N)=O	HIV-1	viral replication	human PBMC, subtype A 92RW009, CCR5-tropic clinical isolate	–	EC50	2870 ± 3060 nM
CC(C)(C#Cc1ccc(-c2ccc(Cl)c3c(NS(C)(=O)=O)nn(CC(F)(F)F)c23)c([C@@H](CC2CC2)NC(=O)Cn2nc(C(F)(F)F)c3c2C(F)(F)[C@@H]2C[C@H]32)n1)S(C)(=O)=O	HIV-1	viral replication	–	–	EC50	2300 ± 200 nM
Cc1cc(/C=C/C#N)cc(C)c1Nc1nc(Nc2ccc3cc(C#N)ccc3c2)ncc1N	HIV-1	viral replication, single-round infection	RT mutant K101P	–	EC50	98.7 ± 14 nM
NC(=O)CCNC(=O)c1ccccc1S	HIV-1	viral replication	human PBMC, subtype E 93TH073, dual-tropic clinical isolate	–	EC50	2840 ± 2500 nM
Nc1c(C(=O)NCc2ccc(F)cc2F)c(=O)n(O)c2ncc(CCCCCCCCO)cc12	HIV-1	viral replication, single-round infectivity	integrase G140S/Q148H	–	EC50	7.7 ± 1.9 nM

Some of these lines once more:
Molecule	tested on	assay	test system	setting	measurement	value
Cc1cc(/C=C/C#N)cc(C)c1Nc1nc(Nc2ccc(/C=C/C#N)cc2)ncc1N	HIV-1	viral replication, single-round infection	RT mutant K101P	–	EC50	> 100 nM
Nc1c(C(=O)NCc2ccc(F)cc2F)c(=O)n(O)c2ncc(CCCCCCO)cc12	HIV-1	viral replication, single-round infectivity	integrase G140S/Q148H	–	EC50	9.4 ± 3.6 nM
O=C(NCCCCN1CCOCC1)c1cc2ccccc2o1	rep main protease	viral replication, Gluc reporter	SARS-CoV-2	20 µM	inhibition	-0.0737%
